Results pooled from the literature.
Numbers after ± are the reported error.
rep papain-like protease: Replicase polyprotein 1ab, papain-like protease (rep, Severe acute respiratory syndrome coronavirus 2, UniProt P0DTD1)
Lethal factor: Lethal factor (Bacillus anthracis, UniProt P15917)
OPG122: mRNA-decapping protein OPG122 (OPG122, Vaccinia virus, UniProt P04312)
Botulinum neurotoxin type A protease: Botulinum neurotoxin type A, protease (Clostridium botulinum, UniProt P0DPI0)

Compound | target | observed | action | method | cells | with | Ki [µM]
CC(C)COC(=O)N[C@@H](CC(C)C)C(=O)CCl | Replicase polyprotein 1ab, main protease (rep, Severe acute respiratory syndrome-related coronavirus, UniProt P0C6X7) | enzyme activity | inhibitor |  |  |  | 105
Cc1ccc(OCCN(C)C)cc1C(=O)N[C@H](C)c1cc(-c2cnn(CF)c2)cc(-c2ccn(C)n2)c1 | rep papain-like protease | enzyme activity | inhibitor | FRET |  |  | 0.034
CC[C@H](C)[C@@H]1NC(=O)[C@@H]2CSSC[C@H](NC(=O)[C@H](CCCNC(=N)N)NC(=O)[C@@H]3CSSC[C@H](NC1=O)C(=O)N[C@@H]([C@@H](C)O)C(=O)N[C@@H](CCCNC(=N)N)C(=O)NCC(=O)N[C@@H](Cc1ccccc1)C(=O)N3)C(=O)N[C@@H](C)C(=O)N[C@H]1CSSC[C@H](NC(=O)[C@H](C(C)C)NC(=O)CNC(=O)[C@H](Cc3c[nH]cn3)NC(=O)[C@H](CC(C)C)NC1=O)C(=O)N[C@@H](CCCNC(=N)N)C(=O)N2 | Lethal factor |  |  |  |  |  | 0.946 ± 0.047
COC1C(COP(=O)(O)OP(=O)(O)OP(=O)(O)O)OC(n2cnc3c(=O)[nH]c(N)nc32)C1O (stereo not drawn) | OPG122 |  |  |  |  |  | 0.26
CSCC[C@H](NC(=O)[C@H](CCCCN)NC(=O)[C@@H](NC(=O)[C@H](C)NC(=O)[C@H](CCCNC(=N)N)NC(=O)[C@@H](N)CCNc1ccc([N+](=O)[O-])cc1[N+](=O)[O-])[C@@H](C)O)C(=O)N[C@@H](CC(C)C)C(N)=O | Botulinum neurotoxin type A protease | enzyme activity | inhibitor |  |  |  | 0.98
Nc1ncnc2c1ncn2C1CC(O)C(COP(=O)(O)OP(=O)(O)OP(=O)(O)O)O1 (stereo not drawn) | OPG122 |  |  |  |  |  | 0.51
CCC[C@H](NC(=O)[C@H](CC(C)C)NC(=O)OCc1ccccc1)C(=O)C(=O)NCc1ccccn1 | Replicase polyprotein 1ab, main protease (rep, Middle East respiratory syndrome-related coronavirus, UniProt K9N7C7) | enzyme activity | inhibitor |  |  |  | 1.32
COC(=O)C1C(OC(c2ccc(Cl)cc2)c2ccc(Cl)cc2)CC2CCC1N2C (single isomer, unassigned) | rat sodium channel site 2 |  |  | radioligand binding |  | [3H]batrachotoxin benzoate | 1.03 ± 0.032
C[n+]1cn(C2OC(COP(=O)(O)OP(=O)(O)O)C(O)C2O)c2nc(N)[nH]c(=O)c21 (stereo not drawn) | OPG122 |  |  |  |  |  | 0.08
CCCCCCCCOC1OC(C)C(OC2OC(C)C(OC3OC(C)C(OC4OC(C)C(OS(=O)(=O)O)C(OS(=O)(=O)O)C4OS(=O)(=O)O)C(OS(=O)(=O)O)C3OS(=O)(=O)O)C(OS(=O)(=O)O)C2OS(=O)(=O)O)C(OS(=O)(=O)O)C1OS(=O)(=O)O (stereo not drawn) | Spike glycoprotein (Severe acute respiratory syndrome coronavirus 2, UniProt P0DTC2) |  |  |  |  |  | 1.05
CC(C)C[C@H](NC(=O)[C@@H](CCCNC(=N)N)NC(=O)[C@@H](CCCNC(=N)N)NC(=O)[C@@H](CCCNC(=N)N)NC(=O)[C@@H](CCCNC(=N)N)NC(=O)[C@@H](CCCNC(=N)N)NC(=O)[C@@H](CCCNC(=N)N)NC(=O)[C@@H](CCCNC(=N)N)NC(=O)[C@@H](CCCNC(=N)N)NC(=O)[C@H](N)CCCNC(=N)N)C(=O)N1CCC[C@H]1C(=O)N[C@@H](Cc1ccc(O)cc1)C(=O)NO | Lethal factor | enzyme activity | inhibitor |  |  |  | 0.00732
Nc1nc2c(nc(Br)n2C2OC(COP(=O)(O)OP(=O)(O)OP(=O)(O)O)C(O)C2O)c(=O)[nH]1 (stereo not drawn) | OPG122 |  |  |  |  |  | > 0.8
CSCC[C@H](NC(=O)[C@H](CCN)NC(=O)[C@@H](NC(=O)[C@H](Cc1c[nH]c2ccccc12)NC(=O)[C@H](CCCNC(=N)N)NC(=O)[C@@H](N)CCNc1ccc([N+](=O)[O-])cc1[N+](=O)[O-])[C@@H](C)O)C(=O)N[C@@H](CC(C)C)C(N)=O | Botulinum neurotoxin type A protease | enzyme activity | inhibitor |  |  |  | 0.041
COCn1cc(-c2cc(-c3cnn(C(F)F)c3)cc([C@@H](C)NC(=O)c3cc(OCCN(C)C)ccc3C)c2)cn1 | rep papain-like protease | enzyme activity | inhibitor | FRET |  |  | 0.0882
COCCOc1cc(OCCOC)cc(C(=O)NCCOC(=O)[C@@H]2CCCCN2S(=O)(=O)Cc2ccccc2)c1 | Peptidyl-prolyl cis-trans isomerase (Burkholderia pseudomallei, UniProt Q63J95) | enzyme activity | inhibitor |  |  |  | 0.98
Nc1nc2c(ncn2C2OC(COP(=O)(O)O)C(O)C2O)c(=O)[nH]1 (stereo not drawn) | OPG122 |  |  |  |  |  | > 0.8
Cc1ccc(OCCN(C)C)cc1C(=O)N[C@H](C)c1cc(-c2cnn(CCN3CCOCC3)c2)cc(-c2ccn(C)n2)c1 | rep papain-like protease | enzyme activity | inhibitor | FRET |  |  | 0.0469
CSCC[C@H](NC(=O)[C@H](CCCCN)NC(=O)[C@@H](NC(=O)[C@H](C)NC(=O)[C@H](CCCNC(=N)N)NC(=O)[C@H](N)Cc1ccccc1)[C@@H](C)O)C(=O)N[C@@H](CC(C)C)C(N)=O | Botulinum neurotoxin type A protease | enzyme activity | inhibitor |  |  |  | > 200
Cc1cc([N+](=O)[O-])ccc1NC(=O)C(Br)C(Br)C(=O)O (stereo not drawn) | Replicase polyprotein 1ab, main protease (rep, Severe acute respiratory syndrome-related coronavirus, UniProt P0C6X7) | enzyme activity | inhibitor |  |  |  | 13
Nc1ncnc2c1ncn2C1OC(COP(=O)(O)OP(=O)(O)O)C(O)C1O (stereo not drawn) | OPG122 |  |  |  |  |  | 0.75
CSCC[C@H](NC(=O)[C@H](CCCCN)NC(=O)[C@@H](NC(=O)[C@H](C)NC(=O)[C@H](CCCNC(=N)N)NC(=O)[C@H](Cc1ccccc1)NC(C)=O)[C@@H](C)O)C(=O)N[C@@H](CC(C)C)C(N)=O | Botulinum neurotoxin type A protease | enzyme activity | inhibitor |  |  |  | > 200
CC[C@H](C)[C@@H]1NC(=O)[C@@H](NC(=O)[C@H](CO)NC(=O)[C@@H](N)CCCNC(=N)N)CSSC[C@@H](C(=O)O)NC(=O)[C@H]([C@@H](C)O)NC(=O)CNC(=O)[C@@H]2CSSC[C@@H]3NC(=O)[C@H](CCC(N)=O)NC(=O)[C@H](Cc4ccccc4)NC(=O)[C@H](C)NC(=O)[C@H]([C@@H](C)O)NC(=O)[C@H](CSSC[C@H](NC(=O)[C@H](Cc4ccccc4)NC(=O)[C@H](CO)NC(=O)[C@H](CC(C)C)NC(=O)[C@H](CCCNC(=N)N)NC(=O)[C@H](Cc4ccc(O)cc4)NC(=O)[C@H](CC(N)=O)NC(=O)[C@H](CCSC)NC(=O)[C@H](CO)NC(=O)[C@H](Cc4c[nH]cn4)NC(=O)[C@H](CCCCN)NC3=O)C(=O)N[C@@H](CCCNC(=N)N)C(=O)N[C@@H](CCCCN)C(=O)N[C@@H]([C@@H](C)O)C(=O)N2)NC(=O)[C@H](CCCNC(=N)N)NC(=O)[C@H](CO)NC(=O)[C@H](CCCCN)NC(=O)[C@@H]2CCCN2C(=O)[C@H]([C@@H](C)CC)NC(=O)[C@H]([C@@H](C)O)NC(=O)[C@H](CC(=O)O)NC1=O | Potassium voltage-gated channel subfamily A member 3 (KCNA3, Homo sapiens, UniProt P22001) | potassium current | inhibitor | two-electrode voltage clamp | Xenopus oocytes |  | 0.0012 ± 0.0001
COC1C(O)C(COP(=O)(O)OP(=O)(O)OP(=O)(O)O)OC1n1cnc2c(=O)[nH]c(N)nc21 (stereo not drawn) | OPG122 |  |  |  |  |  | 0.11
CSCC[C@H](NC(=O)[C@H](CC(C)C)NC(=O)[C@H](Cc1c[nH]c2ccccc12)NC(=O)[C@@H](CCCNC(=N)N)NC(=O)[C@@H](CCCNC(=N)N)NC(=O)[C@@H](CCCNC(=N)N)NC(=O)[C@@H](CCCNC(=N)N)NC(=O)[C@@H](CCCNC(=N)N)NC(=O)[C@@H](CCCNC(=N)N)NC(=O)[C@@H](CCCNC(=N)N)NC(=O)[C@@H](CCCNC(=N)N)NC(=O)[C@H](N)CCCNC(=N)N)C(=O)NO | Lethal factor | enzyme activity | inhibitor |  |  |  | 0.00028
